# Experimental data gathered from unrelated publications.
# A part holds a random share of what one study measured.

# Set 1
# Target: Sal-like protein 4, full length isoform B (SALL4, Homo sapiens, UniProt Q9UJQ4-2, residues 1-616)
# Technique: universal PBM
# Form: double-stranded DNA, one strand shown
# Medium: in vitro
# Tested at: not given
# Setting: 8-mer, flanks averaged, mean of replicates
# Reading: higher = stronger binding
Sequence,E-score
ATATCCGG,0.0704
TCTTGAAA,0.266
TACGGCAA,0.00493
AACGAACT,0.0243
ACACATTA,0.214

# Set 2
# Target: Histone acetyltransferase KAT6A, winged helix 1, GST fusion (KAT6A, Homo sapiens, UniProt Q92794, residues 1-85)
# Technique: protein binding microarray
# Form: double-stranded DNA, one strand shown
# Medium: in vitro
# Tested at: not given
# Setting: 8-mer, flanks averaged, mean of 2 arrays, mostly near background
# Relative to: not given
# Reading: higher = stronger binding
# Residues (chain): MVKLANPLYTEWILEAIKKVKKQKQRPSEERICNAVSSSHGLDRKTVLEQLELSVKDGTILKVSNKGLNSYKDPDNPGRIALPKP
Sequence,E-score
ACATCTCT,-0.0638
GCGTGTCA,0.174
ACGGTTGA,-0.0419
CAGCATCC,-0.0658
CCGCCACA,0.201
ACCATGGC,-0.00558
AGGACTTA,-0.274
GGGACCAC,0.125

# Set 3
# Target: RING finger protein unkempt homolog, zinc fingers 1-6, GST-SBP tag (UNK, Homo sapiens, UniProt Q9C0B0, residues 30-357)
# UniProt Q9C0B0, sequence (30-357, looked up): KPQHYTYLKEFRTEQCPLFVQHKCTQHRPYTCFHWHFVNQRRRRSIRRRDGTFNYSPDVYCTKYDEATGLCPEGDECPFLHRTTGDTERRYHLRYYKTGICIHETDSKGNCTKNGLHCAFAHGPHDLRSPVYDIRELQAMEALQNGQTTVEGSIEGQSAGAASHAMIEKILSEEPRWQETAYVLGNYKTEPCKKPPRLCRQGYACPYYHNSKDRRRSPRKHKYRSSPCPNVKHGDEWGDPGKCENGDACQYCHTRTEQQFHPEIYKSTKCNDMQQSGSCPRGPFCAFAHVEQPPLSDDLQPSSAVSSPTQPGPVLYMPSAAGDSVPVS
# Technique: RNA Bind-n-Seq
# Form: RNA
# Medium: in vitro
# Tested at: not given
# Setting: RNA with constant flanks, human-mouse chimeric sites, ends assumed
# Relative to: input RNA pool
# Reading: higher = stronger binding
Sequence,bound/input enrichment [ratio]
GGGAGUUCUACAGUCCGACGAUCGGGUGGGUGGUCAUUGCCGUUUGAGCUGCUGAUUUUCAUGAGUCGCCCAUUCAGAACUCGUGUAGGGUUGACAAUGUGGGGGGGUGGGGGAUCCAGCUUAUUCUUUUAUUUUCAAGUCCACAACAGAGGAUUGAGCAUCA,0.623
GGGAGUUCUACAGUCCGACGAUCUUUCUAUUGCAGCAAACCAUGCUACGAAUUAAGGAUCCUAAGAAGUCCCUGGAUUUUUAUACGAGGGUUCUUGGACUGACCCUCCUGCAGAAGCUUGACUUCCCUGCUAUGAAGUUCUCGCAACAGAGGAUUGAGCAUCA,0.194
GGGAGUUCUACAGUCCGACGAUCAUGGAACAUUUUGAUGCAUCACUUAGUACCUAUUUCAAGGCCUUCCUGGGCCCCCGAGAUACAAGAGUCAAAGGAUGGUUCCUCCUGGACAAUUACAUCCCUACGUUUGUCUGUUCUGUUCAACAGAGGAUUGAGCAUCA,0.295

# Further values, each from its own experiment
Substance,target,assay,system,setting,how to read,endpoint,result
"PhoQ, residues 284 288 289 292 302 303 SSCCRF","PhoP, residues 12 14 15 18 19 LHSVW (Escherichia coli, UniProt P23836)","Sort-seq, measured: YFP reporter",E. coli,"PhoQ-PhoP variant library, with: 10 µM Mg2+","relative to: high Mg2+ state, higher = stronger signaling",fold induction,2.75

# Excerpt of the above (set 1):
Sequence,E-score
AACGAACT,0.0243
ACACATTA,0.214
